Assay results pooled from the literature.
Several values in a cell are separate wells, animals, samples, runs or records. ± gives the spread as reported.

SMILES	target or system	assay	test system	conditions	scale	quantity	result
Cc1cccc(-c2[nH]c(CNc3ccccc3F)nc2-c2ccc3ncnn3c2)n1	patient CD138+ cells	flow cytometry, refers to: annexin V and PI	–	1 µM, autologous CD8+ T-cell co-culture	–	apoptotic cells	6.46% and 5.21% and 9.58% and 12.1%
Cc1cnc(NC2CCOCC2)nc1-n1cnc(C(=O)NC(CN)c2cc(F)cc(Cl)c2)c1 (stereo not shown)	A-375	flow cytometry	–	1 µM, 48 h	–	G1 phase cells	96.3%
CC/C(=N\NC(=O)NCc1cccc(O)c1)c1ccc(O)c(C)c1O	SK-OV-3	Western blot, refers to: LATS	–	20 µM, 1 h, 3D gellan gum culture, unit not given	relative to: β-actin	protein level	0.51 ± 0.34
Cc1c(C)c2c(c(C)c1O)CCC(C)(COc1ccc(CC3SC(=O)NC3=O)cc1)O2 (stereo not shown)	hepatocytes, iPSC-derived, W2 line	cell viability, RealTime-Glo MT	–	48 h, differentiation day 23	–	IC50	67 µM
CC1=C(Cn2cc(CN3CCN(C(=O)OC(C)(C)C)CC3)nn2)C(=O)c2ccccc2C1=O	Schistosoma mansoni	–	adult worms	25 µM, 24 h	–	killing	43.8%
Nc1cccc2c1C(=O)N([C@@H]1CCCNC1)C2=O	RAW 264.7	refers to: nitrite	–	30 µM, added: LPS	–	inhibition	32%
Cn1cnc2c(F)c(Nc3ccc(Br)cc3Cl)c(C(=O)NOCCO)cc21	HD-MB03	cell growth	–	168 h, DMSO	–	IC50	3.62 µM
COc1ccc2c(c1)c(C1=C(c3c[nH]c4ccccc34)C(=O)NC1=O)cn2CCCN(C)C	H9c2	agonist	–	concentration not given, 20 min, A2B receptor-mediated, added: pertussis toxin overnight	–	ERK1/2 activation	inhibited
O=C(C[C@@H](C(F)F)n1ccc(F)n1)N1CCC(O)(Cn2cnc3c(cnn3-c3ccc(F)cc3)c2=O)CC1	CHP-212 parental (wild-type USP7)	annexin V-PI flow cytometry	–	1 µM, 48 h	–	viable cells (annexin V-/PI-)	63.6% and 57.9% and 64.2%
CCn1cc(-c2cc(Cn3ccnc3)cc3c2CCN([C@H](c2cc(OC)ccn2)C2CC2)C3=O)c(C(F)(F)F)n1	SUIT-2	cell growth, inhibitor	–	120 h	–	EC50	> 30 µM
CC[C@]1(O)C[C@@H]2CN(CCc3c([nH]c4ccccc34)[C@@](C(=O)OC)(c3cc4c(cc3OC)N(C)[C@H]3[C@@](O)(C(=O)OC)[C@H](OC(C)=O)[C@]5(CC)C=CCN6CC[C@]43[C@@H]65)C2)C1	HD-MB03	cell growth	–	168 h, DMSO	–	IC50	0.0448 µM
O=C(/C=C/C=C/C=C/C1CCCCC1)NC1=C[C@@](O)(/C=C/C=C/C=C/C(=O)NC2=C(O)CCC2=O)[C@@H]2O[C@@H]2C1=O	NCI-H358	cell growth, CellTiter-Glo	–	78 h	–	GI50	12 µM
C[C@@H]1CC(=O)NN=C1c1ccc(NN=C(C#N)C#N)cc1	Nedd8-cullin1 interaction	neddylation, AlphaScreen	–	100 µM	–	inhibition	64.3%
O=C1c2ccncc2C(=O)c2c1[nH]c1ccccc21	pulmonary arterial smooth muscle cells, PAH patient	no effect	–	concentration not given	–	Mfn1 and Mfn2 protein levels	no effect
COc1cnc2cccc(N3CCc4c(cc(Cn5ccnc5C)cc4-c4cn(C)nc4C(F)(F)F)C3=O)c2c1	NCI-H2126	cell growth, inhibitor	–	120 h	–	EC50	9.79 µM
CCc1c2c(nc3ccc(O)cc13)-c1cc3c(c(=O)n1C2)COC(=O)[C@]3(O)CC	HD-MB03	–	–	concentration not given, added: ribociclib NG	relative to: ribociclib over DMSO	fold change in IC50	2.17
CCOC(=O)[C@H](CCc1ccccc1)N[C@@H](C)C(=O)N1Cc2ccccc2C[C@H]1C(=O)O	Nedd8-cullin1 interaction	neddylation, AlphaScreen	–	100 µM	–	inhibition	31.7%
C[C@@H]1CN(C(=O)c2ccc(NC(=O)c3cc(O[C@H](C)c4c(Cl)ccc(F)c4Cl)c(N)nn3)cc2)C[C@H](C)N1	NCI-H3122 (EML4-ALK variant 1)	cell viability	–	–	–	Emax	67%
CCn1cc(-c2cc(Cn3ccoc3=N)cc3c2CCN([C@@H](C)c2cc(OC)ccn2)C3=O)c(C(F)(F)F)n1	A-375	cell growth, inhibitor	–	120 h	–	EC50	> 30 µM
CC(C)(c1ccc(O)cc1)c1ccc(O)cc1	HepG2 spheroids	Hoechst flow cytometry	–	0.01 µM, 96 h	–	G2 phase cells	7.64 ± 1.54%
Cn1cc(-c2ccc(-c3cncc(Cl)c3N3CCC4(CCNC4=O)CC3)cc2)cn1	COLO 205	gene expression, microarray, refers to: ILF3 mRNA	–	concentration not given, 6 h	relative to: untreated cells	log2 fold change	-3.1
CCN(c1cc(C#CCN2CCOCC2)cc(C(=O)NCc2c(C)cc(C)[nH]c2=O)c1C)[C@H]1CC[C@H](N(C)CCOC)CC1	HD-MB03	–	–	–	relative to: DMSO	IC50	inactive
CC1=C(Cc2cn(Cc3ccccc3)nn2)C(=O)c2ccccc2C1=O	Schistosoma mansoni	–	adult worms	10 µM, 72 h	–	killing	56.9%
Cc1cccc(C)c1NC(=O)C(C)N (stereo not shown)	primary rat hippocampal/cortical neuron-glia cultures	–	–	1 µM, added: 1 µM α-synuclein oligomers	–	reversal of trafficking deficit	-15%
Cn1c(Nc2nc3ccc(C(F)(F)F)cc3s2)nc2cc(C(=O)NCCOCCO)ccc21	SH-SY5Y	RNA-seq, refers to: FLNC mRNA	–	5 µM, 5 h	relative to: untreated cells	fold change	1.93

Some of these lines once more:
SMILES	target or system	assay	test system	conditions	scale	quantity	result
Cn1cnc2c(F)c(Nc3ccc(Br)cc3Cl)c(C(=O)NOCCO)cc21	HD-MB03	cell growth	–	168 h, DMSO	–	IC50	3.62 µM
COc1ccc2c(c1)c(C1=C(c3c[nH]c4ccccc34)C(=O)NC1=O)cn2CCCN(C)C	H9c2	agonist	–	concentration not given, 20 min, A2B receptor-mediated, added: pertussis toxin overnight	–	ERK1/2 activation	inhibited
O=C(C[C@@H](C(F)F)n1ccc(F)n1)N1CCC(O)(Cn2cnc3c(cnn3-c3ccc(F)cc3)c2=O)CC1	CHP-212 parental (wild-type USP7)	annexin V-PI flow cytometry	–	1 µM, 48 h	–	viable cells (annexin V-/PI-)	63.6% and 57.9% and 64.2%
